# Measured values from different studies.
# Compare with care: the assays were run in different laboratories. Values joined by “and” are separate records of one study, mostly repeats; a detail may differ. ± gives the spread as reported.
# SPT15/TOA1/TOA2/SUA7 1-240; 1-286; 1-122; 1-345: SPT15/TOA1/TOA2/SUA7 1-240; 1-286; 1-122; 1-345 (Saccharomyces cerevisiae)
# Fibroin-modulator-binding protein-1: Fibroin-modulator-binding protein-1 99-193 (Bombyx mori, UniProt Q5FBS0)
# Sequence of UniProt Q64663 (whole entry, unmodified, looked up): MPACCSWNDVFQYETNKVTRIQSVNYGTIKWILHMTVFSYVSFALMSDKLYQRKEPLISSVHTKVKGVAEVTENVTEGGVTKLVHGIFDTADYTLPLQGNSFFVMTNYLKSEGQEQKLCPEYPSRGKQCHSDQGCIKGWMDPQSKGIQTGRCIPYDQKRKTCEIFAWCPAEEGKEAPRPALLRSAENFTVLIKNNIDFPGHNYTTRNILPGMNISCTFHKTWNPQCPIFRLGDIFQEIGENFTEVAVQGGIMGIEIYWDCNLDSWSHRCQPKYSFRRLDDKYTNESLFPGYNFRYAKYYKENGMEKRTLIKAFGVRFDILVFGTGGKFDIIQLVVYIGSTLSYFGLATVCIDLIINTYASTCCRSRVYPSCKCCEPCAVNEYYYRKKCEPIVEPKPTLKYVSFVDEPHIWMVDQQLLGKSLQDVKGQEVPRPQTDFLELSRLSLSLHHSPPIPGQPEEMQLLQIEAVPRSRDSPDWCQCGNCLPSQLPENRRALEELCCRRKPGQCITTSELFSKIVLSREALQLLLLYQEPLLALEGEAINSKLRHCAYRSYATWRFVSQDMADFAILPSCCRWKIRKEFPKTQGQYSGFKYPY
# Sequence of UniProt P48067 (whole entry, looked up): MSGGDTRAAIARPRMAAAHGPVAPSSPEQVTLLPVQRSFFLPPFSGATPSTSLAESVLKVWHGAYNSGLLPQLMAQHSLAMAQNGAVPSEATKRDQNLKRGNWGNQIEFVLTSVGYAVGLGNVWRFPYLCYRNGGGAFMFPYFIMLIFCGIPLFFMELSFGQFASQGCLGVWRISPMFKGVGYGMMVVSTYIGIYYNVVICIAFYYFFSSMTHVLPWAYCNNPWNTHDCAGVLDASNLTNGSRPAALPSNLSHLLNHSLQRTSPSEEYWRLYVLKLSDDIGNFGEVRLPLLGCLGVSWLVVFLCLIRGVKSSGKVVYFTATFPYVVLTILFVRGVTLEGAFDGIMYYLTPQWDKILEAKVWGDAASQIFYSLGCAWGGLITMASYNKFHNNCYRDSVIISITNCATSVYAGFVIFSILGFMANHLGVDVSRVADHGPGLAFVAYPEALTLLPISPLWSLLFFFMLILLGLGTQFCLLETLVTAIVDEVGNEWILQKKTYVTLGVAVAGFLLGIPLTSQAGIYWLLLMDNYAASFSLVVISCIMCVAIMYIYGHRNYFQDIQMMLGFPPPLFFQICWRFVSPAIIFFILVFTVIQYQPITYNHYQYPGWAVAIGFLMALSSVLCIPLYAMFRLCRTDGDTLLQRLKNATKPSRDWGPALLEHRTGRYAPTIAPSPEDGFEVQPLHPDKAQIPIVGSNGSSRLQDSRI
# Sequence of UniProt P27695 (whole entry, looked up): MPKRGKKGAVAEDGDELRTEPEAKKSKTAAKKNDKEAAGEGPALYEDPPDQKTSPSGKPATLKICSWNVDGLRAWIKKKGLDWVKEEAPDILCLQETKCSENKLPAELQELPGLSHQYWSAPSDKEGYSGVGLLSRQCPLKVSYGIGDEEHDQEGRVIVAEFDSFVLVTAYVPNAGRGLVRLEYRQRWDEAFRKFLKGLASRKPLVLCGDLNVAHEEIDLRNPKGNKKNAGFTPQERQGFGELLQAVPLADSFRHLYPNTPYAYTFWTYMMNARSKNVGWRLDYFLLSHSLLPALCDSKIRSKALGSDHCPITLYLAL
Molecule,target or system,assay,system,setting,scale,quantity,value
CTCAGGAATTCCTGTAAAGTAATGTGGAGCTCAGTTCAAGTCAATCGGTCC (dsDNA; 5'-amino-C6 primer),SPT15/TOA1/TOA2/SUA7 1-240; 1-286; 1-122; 1-345,array,"double-stranded DNA, one strand shown",TBP:TFIIA:TFIIB ternary complex,,Kd,2.42 ± 0.32 nM
GSGAGRETEV,human MAGI1-2/6 PDZ construct (MBP fusion),surface plasmon resonance,peptide,concentration not given,higher = stronger binding,normalised SPR binding response,14.1 normalised RU
BzATP,"P2X purinoceptor 7 (P2rx7, Rattus norvegicus, UniProt Q64663, R125A)","ion current, agonist, two-electrode voltage clamp",Xenopus oocytes,3.704 µM,,normalized current,0.552 and 0.571 and 0.451
"DNA 1 CACTGGCCGTCTTACGGTCGCTCTGCTCGACG / DNA 2 CGACCGTAAGACGGCCAGTG (dsDNA; 20 bp, 3' 12 nt overhang)","RECQL 63-592 M199A (Bos taurus, UniProt A0JN36)",fluorescence anisotropy,double-stranded DNA,together with: Mg2+ 3 mM,,Kd,5.8 ± 1.4 nM
GGGAGAACUUCGACCAGAAGAAAGACGGUACGCGACUCAACACCCGCCUCCGUCAGGUUUUAUGUGCGCAUACAUGGAUCCUC (ssRNA; 2'-fluoro pyrimidines),integrin alphaV/beta3 31-992/27-718 (Homo sapiens),SPR,RNA,together with: MnCl2 1 mM,higher = more binding,relative binding,52.3 RU
methyl-β-cyclodextrin,"Sodium- and chloride-dependent glycine transporter 1 (SLC6A9, Homo sapiens, UniProt P48067)","transport activity, [3H]glycine uptake",,"3.5 mg/mL, 1 min, together with: glycine 300 µM",higher = more transport,glycine uptake rate,47.9 a.u. and 58.3 a.u. and 42.8 a.u. and 56.7 a.u.
CCAGCCAGCCAG (dsDNA),Fibroin-modulator-binding protein-1,ITC,"double-stranded DNA, one strand shown",,,Kd,6510 ± 630 nM
GGGAGAACUUCGACCAGAAGGACUACGCGAAACUUACUCCCCCCGCCUGUCCUUAAACUUUAUGUGCGCAUACAUGGAUCCUC (ssRNA; 2'-fluoro pyrimidines),integrin alphaV/beta3 31-992/27-718 (Homo sapiens),SPR,RNA,together with: MnCl2 1 mM,higher = more binding,relative binding,95.7 RU
RNA 1 CCGGGCGGGCGGGAGGGAC / RNA 2 GGCCUCCGGCCCCCCCG (dsRNA (Homo sapiens); duplex with bulges),"APEX1 full length assumed (Homo sapiens, UniProt P27695)",fluorescence titration,double-stranded RNA,"without Mg2+, together with: none",,K1/2,400 ± 90 nM
GSGAGKETYY,human MAGI1-3/6 PDZ construct (MBP fusion),surface plasmon resonance,peptide,concentration not given,higher = stronger binding,normalised SPR binding response,0 normalised RU
colistin,Pseudomonas aeruginosa,broth microdilution,clinical isolate RKI-No_502/15,,,MIC,1 µg/mL
CTCAGGAATTCCTACAAAGTAATGTGGAGCTCAGTTCAAGTCAATCGGTCC (dsDNA; 5'-amino-C6 primer),SPT15/TOA1/TOA2/SUA7 1-240; 1-286; 1-122; 1-345,array,"double-stranded DNA, one strand shown",TBP:TFIIA:TFIIB ternary complex,,Kd,1.37 ± 0.19 nM
Peginesatide,UT7/EPO,"tyrosine phosphorylation, LC-MS/MS phosphoproteomics, trypsin, item: STAT3 tyrosine 705",,"10 nM, 15 min, together with: 10 U/mL EPO",baseline: vehicle,phosphorylation level,5.6 fold
ATGAATGAATGA (dsDNA),Fibroin-modulator-binding protein-1,ITC,"double-stranded DNA, one strand shown",,,Kd,1520 ± 149 nM
11-deoxycorticosterone,,stopped-flow global kinetic fitting,,"4-state closed model (best), 10-fold adrenodoxin excess, together with: substrate binding k-2",,rate constant,45.8 ± 1.6 min⁻¹
GTTAGTTAGTTA (dsDNA),Fibroin-modulator-binding protein-1,ITC,"double-stranded DNA, one strand shown",,,Kd,1520 ± 66.9 nM
GGGAGAACUUCGACCAGAAGCACUACGUGACCAUGAUUCCCCACCUGUGCUUCAGUCAGUUAUGUGCGCAUACAUGGAUCCUC (ssRNA; 2'-fluoro pyrimidines),integrin alphaV/beta3 31-992/27-718 (Homo sapiens),SPR,RNA,together with: MnCl2 1 mM,higher = more binding,relative binding,85.4 RU
TGCATGCATGCA (dsDNA),Fibroin-modulator-binding protein-1,ITC,"double-stranded DNA, one strand shown",,,Kd,1480 ± 100 nM
GAATTCCTGTAAAGTAATGTGGAGCTCCGTTCGTCTCAAGTCAATCGGTCC (dsDNA; 5'-amino-C6 primer),SPT15/TOA1/TOA2/SUA7 1-240; 1-286; 1-122; 1-345,array,"double-stranded DNA, one strand shown",TBP:TFIIA:TFIIB ternary complex,,Kd,3.75 ± 0.98 nM
GGGAGAACUUCGACCAGAAGGUUCAAAUCCCCGCACAUUACGUAACACUCGAACCCUACCUAUGUGCGCAUACAUGGAUCCUC (ssRNA; 2'-fluoro pyrimidines),integrin alphaV/beta3 31-992/27-718 (Homo sapiens),SPR,RNA,together with: MnCl2 1 mM,higher = more binding,relative binding,46.9 RU
CTCACTCACTCA (dsDNA),Fibroin-modulator-binding protein-1,ITC,"double-stranded DNA, one strand shown",,,Kd,3570 ± 463 nM
GGGAGAACUUCGACCAGAAGUCCUUGCCACCGUCUCACAUUACGCUAAAUCUCUCCAGCCUAUGUGCGCAUACAUGGAUCCUC (ssRNA; 2'-fluoro pyrimidines),integrin alphaV/beta3 31-992/27-718 (Homo sapiens),SPR,RNA,together with: MnCl2 1 mM,higher = more binding,relative binding,39.1 RU
"DNA 1 TGGGTGGGTAGGGTGGGTAGGGGAGGAT / DNA 2 ATCCTCCCCTA (DNA; intramolecular parallel G4, 5' overhang, 11-bp duplex)","REV1 330-833 N497S (Homo sapiens, UniProt Q9UBZ9)",FP,folded DNA,KCl 100 mM,,Kd,6.9 ± 2.3 nM

# Some of these lines once more:
Molecule,target or system,assay,system,setting,scale,quantity,value
GGGAGAACUUCGACCAGAAGGUUCAAAUCCCCGCACAUUACGUAACACUCGAACCCUACCUAUGUGCGCAUACAUGGAUCCUC (ssRNA; 2'-fluoro pyrimidines),integrin alphaV/beta3 31-992/27-718 (Homo sapiens),SPR,RNA,together with: MnCl2 1 mM,higher = more binding,relative binding,46.9 RU
GAATTCCTGTAAAGTAATGTGGAGCTCCGTTCGTCTCAAGTCAATCGGTCC (dsDNA; 5'-amino-C6 primer),SPT15/TOA1/TOA2/SUA7 1-240; 1-286; 1-122; 1-345,array,"double-stranded DNA, one strand shown",TBP:TFIIA:TFIIB ternary complex,,Kd,3.75 ± 0.98 nM
